# Published values pooled from the literature.
# Parts stem from different laboratories: compare values within a part only.

# Study 1
# Target: Transcription factor Sp1 (SP1, Homo sapiens, UniProt P08047, residues 1-785, full length assumed)
# Sequence of UniProt P08047 (whole entry, looked up): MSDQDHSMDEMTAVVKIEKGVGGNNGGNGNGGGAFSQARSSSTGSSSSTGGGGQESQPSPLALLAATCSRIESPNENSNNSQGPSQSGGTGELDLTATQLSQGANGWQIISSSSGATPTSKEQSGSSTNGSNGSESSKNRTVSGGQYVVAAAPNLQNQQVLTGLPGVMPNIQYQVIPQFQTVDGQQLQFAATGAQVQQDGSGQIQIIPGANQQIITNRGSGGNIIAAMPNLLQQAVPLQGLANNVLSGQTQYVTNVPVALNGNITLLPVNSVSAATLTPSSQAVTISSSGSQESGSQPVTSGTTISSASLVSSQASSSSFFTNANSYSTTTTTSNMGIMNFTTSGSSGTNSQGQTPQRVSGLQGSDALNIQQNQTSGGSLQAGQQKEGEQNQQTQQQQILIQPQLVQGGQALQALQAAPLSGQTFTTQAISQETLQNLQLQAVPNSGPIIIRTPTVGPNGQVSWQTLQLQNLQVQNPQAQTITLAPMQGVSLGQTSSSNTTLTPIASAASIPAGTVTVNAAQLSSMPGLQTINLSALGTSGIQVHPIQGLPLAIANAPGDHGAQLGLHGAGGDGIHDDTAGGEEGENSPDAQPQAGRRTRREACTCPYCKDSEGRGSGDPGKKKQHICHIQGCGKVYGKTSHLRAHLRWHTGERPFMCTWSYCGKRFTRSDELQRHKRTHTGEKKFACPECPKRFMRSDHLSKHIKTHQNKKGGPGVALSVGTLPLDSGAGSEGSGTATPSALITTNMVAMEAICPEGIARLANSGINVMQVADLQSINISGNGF
# Method: protein-binding microarray
# Form: double-stranded DNA, one strand shown
# Medium: in vitro
# Tested at: not given
# Notes: k-mer, scored over probes, only values ≥0.25
# Direction: higher = stronger binding
Sequence,E-score
GACCCACC,0.323
AAAGGGGG,0.314
AGTATACT,0.268
AACTGTAG,0.257
TGGGGTAA,0.361
CGCCCCAA,0.296
CAGTATAA,0.253

# Study 2
# Target: RNA binding protein fox-1 homolog 2, RRM domain, GST-SBP tag (RBFOX2, Homo sapiens, UniProt O43251-10, residues 100-194)
# Method: RNA Bind-n-Seq
# Form: RNA
# Medium: in vitro
# Tested at: 365 nM
# Notes: natural RNA segment, single round, ends assumed
# Reference: no-protein control
# Direction: higher = stronger binding
# All sequences stand within: GGGAGUUCUACAGUCCGACGAUC … UGGAAUUCUCGGGUGCCAA
# Residues (chain): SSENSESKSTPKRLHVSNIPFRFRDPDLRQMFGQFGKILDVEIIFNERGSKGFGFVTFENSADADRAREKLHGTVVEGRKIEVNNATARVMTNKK
Sequence,RBNS enrichment (R)
CUAAUGCUUAUUCUGUUAAUGUAAACUUUUGAAGAUCUUAAGUGUAUUGCUCUUUCAUCUUAAACACUUUCGAGGAUUUGCAGUGCGUCUAGCACCUAGAUUACAGCCAG,0.431
UUAGAAGCAAAUAGUGUGAUUUUCAAGACUUCAAAUACAAAUUUAGUUUAAGUGUUUGAACAACUAUAUGCACUUACGGUUGUGUGUUUAAAAUGUCUCUCUCACCCCCU,0.443
UUCUAGAGGGCUGACCCUGAGCACUCCAGAGUGCUUGCAGAGUUUGAGAAAUGUGAACAUGCUGUGGGGCUGAGCCUCUGCUAUAUCACCGUGAGCUGUAGGAUCAGCUG,0.328
UUUGGUUGUUUGUGCAAUAUUAUAUAUUUUAAAUUAUAAUGCAUCUCCCCAGAGUAUUUUGUAGCUGGGAAAAGAAAAAAAAAGUAAAGAAAAAAUUCUAACAGCUGUUA,2.67
CCAAGUACUACACCUUAUUUGGUCGCAGCUACUGAGGGAUGAACGAAAGCCCCCUCUUCAACUCCUCUCACUUUUUAAAGCAUUGAUAUUAGUAUCUUCUCAGAUACAGA,0.626

# Study 3
# Target: Histone acetyltransferase KAT6A, winged helix 1, GST fusion (KAT6A, Homo sapiens, UniProt Q92794, residues 1-85)
# Method: protein binding microarray
# Form: double-stranded DNA, one strand shown
# Medium: in vitro
# Tested at: not given
# Notes: 8-mer, flanks averaged, mean of 2 arrays, mostly near background
# Reference: not given
# Direction: higher = stronger binding
# Target sequence (chain): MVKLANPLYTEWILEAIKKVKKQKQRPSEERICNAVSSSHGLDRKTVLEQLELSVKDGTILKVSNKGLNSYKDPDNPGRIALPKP
Sequence,E-score
TAGAGAAA,-0.112
AACGAATG,-0.156
AGTCAAGA,-0.129
CATATCAA,-0.168
AGGATCAA,-0.118

# Further values, each from its own experiment
Molecule,target,test,system,setting,scale,endpoint,value
"PhoQ, residues 284 288 289 292 302 303 SLANKL","PhoP, residues 12 14 15 18 19 SEGLL (Escherichia coli, UniProt P23836)","Sort-seq, refers to: YFP reporter",E. coli,"PhoQ-PhoP variant library, with: 10 µM Mg2+","reference: high Mg2+ state, higher = stronger signaling",fold induction,14.6

# Some of these lines once more (study 2):
Sequence,RBNS enrichment (R)
CCAAGUACUACACCUUAUUUGGUCGCAGCUACUGAGGGAUGAACGAAAGCCCCCUCUUCAACUCCUCUCACUUUUUAAAGCAUUGAUAUUAGUAUCUUCUCAGAUACAGA,0.626
UUCUAGAGGGCUGACCCUGAGCACUCCAGAGUGCUUGCAGAGUUUGAGAAAUGUGAACAUGCUGUGGGGCUGAGCCUCUGCUAUAUCACCGUGAGCUGUAGGAUCAGCUG,0.328
